Measured values of several laboratories.
Lines come from different studies, so protocols differ. Numbers after ± are the reported error.

`OC(CN1CCNCC1)Cn1c2ccc(Br)cc2c2cc(Br)ccc21` (stereo not drawn) — result for caspase-3/7 activity: “inhibited” (wild-type MEF; apoptosis, inhibitor; 2 µM, 8 h, added: TNFα and cycloheximide).
`CC(=O)OC[C@H]1O[C@@H](Sc2sc(C(=O)c3ccc(Br)cc3)c(N)c2-c2nc3ccccc3s2)[C@H](OC(C)=O)[C@@H](OC(C)=O)[C@H]1OC(C)=O` has a growth of 60.4% (UACC-62; SRB; 10 µM, 48 h; relative to: untreated).
`CC(C)(C)CCN1C[C@@H]2[C@@H](CNC(=O)c3cc(Cl)cc(Cl)c3)[C@@H]2C1` — result for “concentration abolishing hyperactivated motility”: 30 µM (human sperm; 4 h, added: 100 nM progesterone or PGE1).
`O=C1c2c(O)cc(O)cc2-c2c(-c3ccc(O)cc3)oc3cc(O)cc1c23` — result for “number of proteins affected”: less than 200 (MCF7 cells; label-free MS proteomics; 10 µM).
`CC[C@H](C)[C@@H]1NC(=O)[C@H](C)NC(=O)[C@H]([C@@H](C)CC)NC(=O)[C@H](CCC(N)=O)NC(=O)[C@H](C)NC(=O)[C@H](CCCNC(=N)N)NC(=O)[C@H](C(C)C)NC(=O)[C@H](CC(C)C)NC(=O)[C@H](CCC(=O)O)NC(=O)[C@H](CCCNC(=N)N)NC(=O)CNC(=O)[C@@H](NC(=O)[C@H](CC(C)C)NC(=O)[C@H](CCCCN)NC(=O)[C@@H](NC(=O)[C@@H](NC(=O)[C@H](CCC(=O)O)NC(=O)[C@H](CCC(=O)O)NC(=O)[C@H](CCSC)NC(=O)[C@H](Cc2c[nH]c3ccccc23)NC(=O)[C@H](CO)NC(=O)[C@@H](N)CC(=O)O)C(C)C)[C@@H](C)CC)CSSC[C@@H]2NC(=O)[C@@H](NC(=O)[C@H](CCCCN)NC(=O)[C@H](CC(N)=O)NC(=O)[C@H](C)NC(=O)[C@H](CC(C)C)NC(=O)[C@H](C)NC(=O)[C@H](CO)NC(=O)[C@H](Cc3ccc(O)cc3)NC(=O)[C@H](CC(C)C)NC(=O)[C@@H](N)CCC(N)=O)C[Se][Se]C[C@H](NC(=O)CNC(=O)[C@H](C(C)C)NC(=O)[C@H](Cc3c[nH]cn3)NC2=O)C(=O)N[C@@H]([C@@H](C)O)C(=O)N[C@@H](CCCCN)C(=O)N[C@@H](CCCNC(=N)N)C(=O)N[C@@H](CO)C(=O)N[C@@H](CC(C)C)C(=O)N[C@@H](C)C(=O)N[C@@H](CCCNC(=N)N)C(=O)N[C@@H](Cc2ccccc2)C(=O)N[C@H](C(=O)O)CSSC[C@@H](C(=O)NCC(=O)N[C@@H](CCSC)C(=O)N[C@@H](CO)C(=O)N[C@H](C(=O)N[C@@H](Cc2c[nH]c3ccccc23)C(=O)N[C@@H](CO)C(=O)O)[C@@H](C)O)NC1=O`: mRNA level “decreased” (human endometriotic stromal cells; qPCR, item: PAI-1; 33 ng/mL, 8 h; relative to: untreated).
For `COc1cc(CNC(=O)C[C@H](C)CCC=C(C)C)ccc1OCc1cn(-c2cccc([N+](=O)[O-])c2)nn1`, the growth percent was 107% (IGROV-1 ovarian cancer cells; SRB; 10 µM, 48 h).
For `O=S(=O)(CC(F)(F)F)Nc1ccc(Oc2ncccc2-c2ccnc(N[C@H]3CCCNC3)n2)c2ccccc12`, “Txnip mRNA level” read “inhibited” (INS1 cells with Dox-inducible IRE1α; RNA-Seq; 20 µM, added: 5 ng/mL doxycycline).
`Cc1ccc2oc(-c3c4c(N)n[nH]c(=O)c4nn3-c3ccc(NC(=O)/C=C/CN(C)C)cc3)c(C)c2c1` — result for FGFR2 phosphorylation: “inhibited” (SNU-16; Western blot; concentration not given).
For `CCN(c1ncnc2sc(C)c(C)c12)C1CCC(N(C)C)CC1` (stereo not drawn), TNF production read “inactive” (human white blood cells; concentration not given, 1 h pretreatment, added: LPS 1 µg/mL or CpG 0.5 µM).
The inhibition of `CC1(C)[C@@H](O)CC[C@]2(C)[C@H]3C(=O)C=C4[C@@H]5C[C@@](C)(C(=O)O)CC[C@]5(C)CC[C@@]4(C)[C@]3(C)CC[C@@H]12` is reported as 0% (KARPAS-299; cell growth or viability, MTT; 2 µg/mL).
`C=C(CC)C(=O)c1ccc(OCC(=O)NCCNC(=O)COc2ccc(C(=O)C(=C)CC)c(Cl)c2Cl)c(Cl)c1Cl` gave an IC10 of roughly 1.2 µM (HEK293; cell growth, CCK-8; 72 h).
`O=C(c1ccc2ccccc2c1)c1cn(-c2ccccc2)nc1C1=Nn2c(Cc3nnc4n3N=C(c3nn(-c5ccccc5)cc3C(=O)c3ccc5ccccc5c3)CS4)nnc2SC1`: “late apoptotic cells” 23.5% (MCF7 cells; annexin V/PI flow cytometry; IC50, 48 h).
For `CCN1/C(=C/C=C2\CCCC(/C=C/C3=[N+](CC)c4ccccc4C3(C)C)=C2NCCCCCCCCN2CCC(Nc3nc4ccccc4n3Cc3ccc(F)cc3)CC2)C(C)(C)c2ccccc21`, protein level read “decreased” (U87; western blot, item: CDK2; concentration not given, 24 h).
The EC50 of `CCOC(=O)c1c(-c2ccc(C)cc2)oc2ncccc12` is reported as greater than 50 µM (CRL8155; cell growth or viability; 48 h).
`CC(Cc1ccc(Cl)cc1)=C(c1ccc(Cl)cc1)c1ccc(OCCN(C)C)cc1` gave a GI50 of 4.52 µM (A549/ATCC; NCI five-dose screen; non-small-cell lung cancer).
`FC(F)(F)c1ccnc(-c2cc(C(F)(F)F)ccn2)c1.FC(F)(F)c1ccnc(-c2cc(C(F)(F)F)ccn2)c1.[Cl-].[Cl-].[Ru+2].c1csc(-c2ccc(-c3ccc(-c4nc5c6cccnc6c6ncccc6c5[nH]4)s3)s2)c1` — result for “mean phototherapeutic index”: 270 (SK-MEL-28; cell viability; hypoxia 1% O2, added: green light; relative to: dark EC50 over light EC50).
For `O=C(CCCCCCC(=O)Nc1ccccc1)NO`, the GI50 was 0.08 µM (HEK293; cell growth or viability, XTT; 72 h).
`O=C1Nc2ccc(F)cc2C1=Cc1c(Cl)[nH]c2c1ccc1ccccc12` gave a TGI of 7.41 µM (ovarian cancer subpanel of NCI-60; 48 h).
`CC1=CC(C)=[N+]2C1=C(CO)c1c(C)cc(C)n1[B-]2(C)C` gave a phototoxicity index of 76 ± 14 (RPE-1; resazurin; 0.1667 h, added: 510 nm light, 10 min; relative to: dark over light IC50).
For `COc1cc(CNC(=O)C[C@H](C)CCC=C(C)C)ccc1OCc1cn(-c2ccc(Br)cc2)nn1`, the growth percent was 89.9% (IGROV-1 ovarian cancer cells; SRB; 10 µM, 48 h).
`Cc1ccc2nc(-c3ccc(Cl)cc3)c(CN3CCN(c4ccc(F)cc4)CC3)n2c1` gave an EC50 of greater than 50 µM (CRL8155; cell growth or viability; 48 h).
`CCCCc1ccc(C(=O)O[C@H]2[C@H](C)O[C@@H](O[C@H]3[C@H](N(C)C)[C@@H](O)[C@H](O[C@H]4[C@@H](CC=O)C[C@@H](C)[C@@H](O[C@H]5CC[C@H](N(C)C)[C@@H](C)O5)/C=C/C=C/C[C@@H](C)OC(=O)C[C@@H](O)[C@@H]4OC)O[C@@H]3C)C[C@@]2(C)O)cc1` has a selectivity index of 1.66 (GES-1 and HGC-27; cell growth, CCK-8; 72 h; relative to: IC50 GES-1 over HGC-27).
`Cc1nn(-c2ccc(S(=O)(=O)N[C@H](CO)CC(C)C)cc2)c2nn3nnnc3nc12` gave an apoptotic cells of 14 ± 1.41% (PC-3; AO/EB staining; 2 µM, 24 h).
For `CC/C=C\C/C=C\C/C=C\C/C=C\C/C=C\C/C=C\CCC(=O)Nc1ccn(C2OC(CO)C(O)C2(F)F)c(=O)n1` (stereo not drawn), the GI50 was 0.0141 µM (SR; cell growth or viability, SRB).
`C=C(C)C(=O)Nc1ccc(-c2c(C#Cc3cc(OC)cc(OC)c3)c3c(N)ncnc3n2C)cc1` gave an IC50 of 0.088 µM (SNU-16; cell growth or viability, ATP luminescence; 96 h).
The growth percent of `COc1cc(CNC(=O)C[C@H](C)CCC=C(C)C)ccc1O` is reported as 89.1% (IGROV-1 ovarian cancer cells; SRB; 10 µM, 48 h).
`O=Cc1c(O)ccc2ccccc12` — result for “log2 fold change”: 3.51 (HUVEC; RNA sequencing, item: ULBP1; 75 µM, 24 h; relative to: DMSO).
`COc1cc(CNC(=O)C[C@H](C)CCC=C(C)C)ccc1OCc1cn(-c2cccc(C(F)(F)F)c2)nn1` gave a growth of 42.6% (A549/ATCC; SRB; 10 µM, 48 h).
`COc1ccc([C@@H]2CC(=O)c3c(O)cc(O[C@@H]4O[C@H](CO[C@@H]5O[C@@H](C)[C@H](O)[C@@H](O)[C@H]5O)[C@@H](O[C@H]5O[C@H](CO)[C@@H](O)[C@H](O)[C@H]5O)[C@H](O)[C@H]4O)cc3O2)cc1O` gave a gap closure of 4.24 ± 0.78% (A549; cell migration, scratch; 100 µg/mL, 24 h).
`O=C1CCC(N2C(=O)c3ccc(N4CCC(C(=O)N5CCC(CCN6CCC(CNC(=O)c7cccc(-c8noc(C(F)(F)F)n8)c7)(c7nc(-c8ccccc8)cs7)CC6)CC5)CC4)cc3C2=O)C(=O)N1` (stereo not drawn) gave a sub-G0 cells of 80.6% (DHL6; flow cytometry; 3 µM, 24 h).
For `COc1cc(CNC(=O)C[C@H](C)CCC=C(C)C)ccc1OCc1cn(-c2ccc([N+](=O)[O-])cc2)nn1`, the growth was 85.5% (A549/ATCC; SRB; 10 µM, 48 h).
`CCCCCCCCCC[N]1C(=O)c2cccc[n+]2[Ir]1[Cl].Cc1c(C)c(C)[c-](C)c1C` gave a turnover number of 8 (SH-SY5Y; 4-hydroxynonenal reduction, HPLC).
`COc1cc(CNC(=O)C[C@H](C)CCC=C(C)C)ccc1OCc1cn(-c2ccc(Cl)cc2Cl)nn1` has a growth percent of 67.5% (MCF7 breast cancer cells; SRB; 10 µM, 48 h).
`CN(C)c1cc2ccccc2c(N)n1`: mRNA stability “no effect” (LX-2; actinomycin D chase, qPCR, item: MMP9; concentration not given, 6 h pretreatment).
`COc1cc(/C=C/C(=O)/C=C(O)/C=C/c2ccc(OCC(=O)N3CCOCCOCCOCC3)c(OC)c2)ccc1OCC(=O)N1CCOCCOCCOCC1` gave an inhibition of 8.58% (COS-7; cell growth or viability, SRB; 5 µM).
`CCC/C(=C\C1=C(F)C(=O)c2ccccc2C1=O)C(=O)N(CC)CC` — result for “NADPH/total NADP ratio”: “decreased” (Pa03C cells; concentration not given, 6 h).
For `COc1ccc(CC2COC(=O)C2Cc2ccc3c(c2)OCO3)cc1OC` (mixture of isomers), live cells read “decreased” (A2780cis; annexin V/7-AAD; 3.25 µM, 72 h; relative to: untreated).
`CCCc1cc2cc(-n3nc(C)c4c3CC(C)(C)CC4=O)cc(N[C@H]3CCOC3)c2c(=O)[nH]1` gave an APD90 change of less than 20% (hiPSC cardiomyocytes; concentration not given, 30 min).
With `CC(C)c1cccc(C(C)C)c1-n1ccn(-c2c(C(C)C)cccc2C(C)C)c1=[Se].[Cl][Ag]` the resistance factor was 1.7 (LoVo MDR; MTT; relative to: LoVo MDR over LoVo).

Some of these lines once more:
`CCCCc1ccc(C(=O)O[C@H]2[C@H](C)O[C@@H](O[C@H]3[C@H](N(C)C)[C@@H](O)[C@H](O[C@H]4[C@@H](CC=O)C[C@@H](C)[C@@H](O[C@H]5CC[C@H](N(C)C)[C@@H](C)O5)/C=C/C=C/C[C@@H](C)OC(=O)C[C@@H](O)[C@@H]4OC)O[C@@H]3C)C[C@@]2(C)O)cc1` has a selectivity index of 1.66 (GES-1 and HGC-27; cell growth, CCK-8; 72 h; relative to: IC50 GES-1 over HGC-27).
`CC(=O)OC[C@H]1O[C@@H](Sc2sc(C(=O)c3ccc(Br)cc3)c(N)c2-c2nc3ccccc3s2)[C@H](OC(C)=O)[C@@H](OC(C)=O)[C@H]1OC(C)=O` has a growth of 60.4% (UACC-62; SRB; 10 µM, 48 h; relative to: untreated).
`COc1cc(CNC(=O)C[C@H](C)CCC=C(C)C)ccc1OCc1cn(-c2ccc(Cl)cc2Cl)nn1` has a growth percent of 67.5% (MCF7 breast cancer cells; SRB; 10 µM, 48 h).
The EC50 of `CCOC(=O)c1c(-c2ccc(C)cc2)oc2ncccc12` is reported as greater than 50 µM (CRL8155; cell growth or viability; 48 h).
`CCC/C(=C\C1=C(F)C(=O)c2ccccc2C1=O)C(=O)N(CC)CC` — result for “NADPH/total NADP ratio”: “decreased” (Pa03C cells; concentration not given, 6 h).
For `COc1cc(CNC(=O)C[C@H](C)CCC=C(C)C)ccc1OCc1cn(-c2ccc(Br)cc2)nn1`, the growth percent was 89.9% (IGROV-1 ovarian cancer cells; SRB; 10 µM, 48 h).
